Measured values pooled from the literature.
A part holds a random share of what one study measured. Changes are numbered by the printed parent chain.

Series 1 — target: CCNE2, cyclin fold, Cln2 fusion (human); method: yeast growth competition, sequencing; sample: yeast; notes: weak parent motif; baseline: not given; reading: higher = stronger binding
Starting sequence: CDC6 docking peptide (human); TLKGRRLVFDNQL
Variant	normalised enrichment score
ELKGRRLVFDNQL [T1E]	0.876
TLKGRRLVCDNQL [F9C]	-0.035
DLKGRRLVFDNQL [T1D]	-0.269
TLKGRRLVSDNQL [F9S]	-0.137
TAKGRRLVFDNQL [L2A]	-0.208
TLKGRRAVFDNQL [L7A]	0.595
TLKGRRLVFDNQP [L13P]	0.826
TLKTRRLVFDNQL [G4T]	-0.368
TLKGRRLVFDNDL [Q12D]	0.614
TLDGRRLVFDNQL [K3D]	-0.363
TLKGRRLVYDNQL [F9Y]	0.586
TLKGMRLVFDNQL [R5M]	0.491
TDKGRRLVFDNQL [L2D]	-0.639
TLKGRRLVFDKQL [N11K]	0.396
TLKGRRLVFDNTL [Q12T]	0.217
TLKGRRLEFDNQL [V8E]	0.622
TLRGRRLVFDNQL [K3R]	1.12
TLKGRFLVFDNQL [R6F]	-0.441
TLKGRRLVFDYQL [N11Y]	1.22
TLKGRRVVFDNQL [L7V]	0.186
TLKGRRLVFDNAL [Q12A]	0.649
TLKGRRLVFDQQL [N11Q]	0.219
TLKGRRKVFDNQL [L7K]	1.33
TLKSRRLVFDNQL [G4S]	-0.93
NLKGRRLVFDNQL [T1N]	-0.112

Series 2 — target: CEBPA, bZIP domain (human); method: DHFR protein complementation; sample: yeast; baseline: wild-type JUN-FOS pair; reading: higher = stronger binding
Notes: single substitutions, most at no-binding floor
Starting sequence: JUN, bZIP domain (human); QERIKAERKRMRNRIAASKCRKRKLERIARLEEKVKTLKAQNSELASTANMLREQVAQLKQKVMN; partner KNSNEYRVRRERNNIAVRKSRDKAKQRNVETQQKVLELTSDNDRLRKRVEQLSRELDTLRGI
Variant	binding fitness [natural log]
S43W	-1.43
E44P	-1.56
L38F	-1.55
T37N	-1.32
R30H	-1.48
A46T	-1.38
E44N	-1.47
L52Q	-1.48
T37K	-1.4
Q41K	-1.44
S47P	-1.56
K34E	-1.42
M51W	-1.47
A46D	-1.37
Q58P	-1.55
A49W	-1.39
K39C	-1.49
L52K	-1.57
E54Y	-1.38
E54I	-1.41
T37S	-1.42
M51L	-1.44

Series 3 — method: universal PBM; molecule type: double-stranded DNA, one strand shown; sample: in vitro; concentration: not given; reading: higher = stronger binding
Target: Sal-like protein 4, full length isoform B (SALL4, Homo sapiens, UniProt Q9UJQ4-2, residues 1-616)
Notes: 8-mer, flanks averaged, mean of replicates
Oligonucleotide	E-score
ATTTATGA	0.445
GAATTGAC	0.0366
GTACACGA	0.0728
AGACGACC	-0.0384
AGAAATTG	0.273
GCAGGCCA	-0.269
AAAAACAC	0.103
AGTACCGG	-0.255
GTAAATAC	0.17
AACATAGA	0.0754
ACCGATCA	0.0508
GCATGCAA	0.0547
AACAGGCC	-0.252
CCGGAAGA	-0.139
GGTTATAA	0.298
ATGATAGC	0.258
ACGGAACG	-0.11
GGTCCAAA	-0.0781
GGTGCTCA	-0.0988
ACGGCACA	-0.0801

Series 4 — method: DHFR PCA, deep sequencing; sample: yeast; with: (+)-ABA 0.0091 µM; baseline: wild-type fitted maximum; reading: higher = stronger binding
Target: ABI1, truncated, D143A, DHFR fusion (Arabidopsis thaliana)
Notes: methotrexate growth selection, single substitutions
Starting sequence: PYL1, truncated, DHFR fusion (Arabidopsis thaliana); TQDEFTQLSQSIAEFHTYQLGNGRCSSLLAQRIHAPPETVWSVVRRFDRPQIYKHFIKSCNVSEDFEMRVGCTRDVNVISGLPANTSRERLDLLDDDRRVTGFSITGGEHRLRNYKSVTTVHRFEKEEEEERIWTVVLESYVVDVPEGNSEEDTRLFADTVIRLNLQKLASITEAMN
Variant	relative binding score [%]
G81H	1.5
A13C	4.68
C25T	51.2
A30R	3.35
A84W	109
E174H	-11.4
L164M	15.3
D95S	-5.16
T73M	32.6
L29C	29.7
T86M	25
P37D	-3.47
R111S	5.91
P37M	1.85
R163K	42.5
T173A	27.1
T6Y	33.7
G23Q	4.61

Series 5 — method: aptamer microarray, sandwich; molecule type: DNA with 2'F-ANA; sample: in vitro; concentration: 200 nM; with: Cy3 exosite-II aptamer, 400 nM; reading: higher = stronger binding; oligonucleotide: GGTTGGTGTGGTTGG
Target: Prothrombin, mature alpha-thrombin (F2, Homo sapiens, UniProt P00734)
Notes: whole 15-mer aptamer, many near background
Modification	mean fluorescence intensity
2'F-ANA at 1 3 4 6 7 9 10 11 12 14	67.1 a.u.
2'F-ANA at 1 2 3 4 7 8 13 14	83.3 a.u.
2'F-ANA at 1 2 3 4 6 7 8 9 15	183 a.u.
2'F-ANA at 2 3 6 7 10 12 13 15	383 a.u.
2'F-ANA at 1 2 4 5 6 9 12	133 a.u.
2'F-ANA at 1 2 4 5 6 7 8 9 10 14 15	143 a.u.
2'F-ANA at 1 3 11 12	529 a.u.
2'F-ANA at 1 5 8 9 10 15	44.1 a.u.
2'F-ANA at 1 2 3 5 7 8 10 11 12 14	49.2 a.u.
2'F-ANA at 4 5 6 7 8 9 11 13	55.1 a.u.
2'F-ANA at 4 5 7 9 10 11 15	48 a.u.
2'F-ANA at 1 5 7 10 11 14	87.9 a.u.
2'F-ANA at 2 3 4 5 6 7 8	100 a.u.
2'F-ANA at 1 2 3 4 6 8 9 10 12 15	76.2 a.u.
2'F-ANA at 2 4 5 7 9 10 11 15	146 a.u.
2'F-ANA at 4 5 6 7 10 11 12 13 14	81.6 a.u.
2'F-ANA at 2 6 7 8 12 13	624 a.u.
2'F-ANA at 2 4 5 9 11 12 14 15	50 a.u.
2'F-ANA at 2 4 7 8 9 10 11	108 a.u.
2'F-ANA at 1 2 3 4 5 7 8	69.6 a.u.

Series 6 — method: RNA Bind-n-Seq; molecule type: RNA; sample: in vitro; concentration: 100 nM; baseline: input RNA pool; reading: higher = stronger binding
Target: RING finger protein unkempt homolog, zinc fingers 1-6, SBP tag (UNK, Homo sapiens, UniProt Q9C0B0, residues 30-357)
Sequence of UniProt Q9C0B0 (30-357, looked up): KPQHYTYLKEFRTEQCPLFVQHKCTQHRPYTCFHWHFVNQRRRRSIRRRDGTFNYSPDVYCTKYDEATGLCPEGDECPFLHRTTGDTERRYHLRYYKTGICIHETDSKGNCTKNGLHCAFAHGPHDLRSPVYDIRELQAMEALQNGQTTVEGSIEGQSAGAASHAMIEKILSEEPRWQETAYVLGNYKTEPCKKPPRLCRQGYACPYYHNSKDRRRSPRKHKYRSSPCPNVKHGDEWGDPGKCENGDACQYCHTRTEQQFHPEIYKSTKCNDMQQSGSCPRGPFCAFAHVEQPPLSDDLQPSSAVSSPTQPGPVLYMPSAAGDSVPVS
Notes: RNA with constant flanks, vertebrate orthologous sites, ends assumed
All sequences stand within: GGGAGUUCUACAGUCCGACGAUC … CAACAGAGGAUUGAGCAUCA
Oligonucleotide	bound/input enrichment
UCACUAGUCCCACUACUCCUGGGUGCGUGACUGCCAUCCACCAGCACUGCAAGGGGUGCAGAGUGUUUUUUUGCUGCCUCAGUCCCCAAUGCCUUCAAGCAGAAGUGGCAGUAGGUUGUU	0.446 ratio
CUACUAUAAACAACUCAGGGCAGUAUUCUCGAUAUCCUUACAGUAACCUAAAUCAGGGAUUAGUUAACAGUACAGGGAUGAAUCAAAAUUUAGGCCUUACGAAUAAUACUCCAAUGAAUC	1.22 ratio
AGUAGUUUUAAGCUUGUUUGCACAGUUCUUUUUUUCCAUUGGAAAUGGAAUUCAUUGCCUUAGGUCUUUUUAAAUAGUGUAUUAUUAUCGUUGGGGCUGGCUCUAUGCUUGAAACCAGUU	3.42 ratio
AGCAAAUCAAGGAUUGAGGACUGGUUUUACAAAUAUACCAAGUAGAUAUGGAACUAAUAAUAGAAUUGGACAACCAAGACCAUGAUAGACUCUAACUUAUUUUUAUAAGGAAUAUUGACU	0.366 ratio
AUCCUGGUUGCUUUUUGUCACCUUGGUGAGGUAAAGGCUCCCUUGGGAUUUUGUUGGCACUAGAUGCCAGCCACCCAUAAUAAGUCUUGUCACACUUCAUGUCAUUUCGUUUCAUUUCUU	0.113 ratio
UUCAGGCACAACUGACUGGUUCACAACAUUCCCUACAUAGUUAUCUAGCAAAUACAAGUGUGGUUAAUUUUCAGGAAACAACCAGGCAGUCAUCUUUACCAUGUAGCCCAGUUGGAGAUU	0.836 ratio
UUUUUUUCUUUUUUUUUUAAUUUAAUUUUUCCUUUUGGGGGUAAAGUUUGCUCUACCAAAUAGUGAUUGUAACAAAUUGAUCUGUUUUGGAUGUUGCUAUAGUGACAUGCAGUUAUAUAU	1.48 ratio
UAAUGUGUUUUUAUUUACUGAAGAUCGUUUUGUGCUAAGAAUUGUGUUAGAUUGAAAAAUAAGAGGAUUAGUUUCUCUUUGUUGUGUUGAUUUCAUUGUUGAAAAUAAAUAGAACUUUGU	0.597 ratio
AUUUUAAAAGUGUUUAGUUAUAUUUAAUGAUUUUAUUCCUGAGUUCCUAUUUCAUUAAAGUAGCUUCCAUUUCUAUUUAUCGCAGUUAUGAAUAAGUAGAAGGUUUGUGCCAGUAGACAC	0.817 ratio
UCAUUGGGUUACUCCUAUUAUCAAGUAGCUGGAAUUGUGAAGGUUGAGUAGUUAGAUCUUUAGCUUUUAUUCAUUAUUUUUUGUAUUACUCUCCAUGUGUAUAAAUUAUUGAUCAUGUUG	2.7 ratio
UUAAUCAGUUGACUUGUAUUCUGAUGAUAAAAUGUAACAUUGUGUAGCUUUUGUAUAAAAACAUGAAUUGGAAAUCGUCCAAAUAUCAAGCUAUUUUCUUGCUUUAAAGUUACUGAUGUG	0.208 ratio

Single results of other studies
Molecule	target	assay	test system	setting	how to read	endpoint	result
PhoQ, residues 284 288 289 292 302 303 AGGCYF	PhoP, residues 12 14 15 18 19 NYFTV (Escherichia coli, UniProt P23836)	Sort-seq, item: YFP reporter	E. coli	PhoQ-PhoP variant library, with: 10 µM Mg2+	baseline: high Mg2+ state, higher = stronger signaling	fold induction	1.42

A few entries again (series 3):
Oligonucleotide	E-score
CCGGAAGA	-0.139
AACATAGA	0.0754
GCAGGCCA	-0.269
AAAAACAC	0.103
ACGGCACA	-0.0801
ACCGATCA	0.0508
AGAAATTG	0.273
